Measured values gathered from unrelated publications.
Numbered parts are unrelated; each lists some results of a single study.

Sample 1 — technique: protein-binding microarray; form: double-stranded DNA, one strand shown; matrix: in vitro; concentration: 250 nM; notes: 60-bp whole probe; with: salmon DNA 0.4 mg/ml; reference: random background probes; direction: higher = stronger binding; endpoint: log fluorescence; constant ends, left off below: GCCTAGCAC … GTCTTGATTCGCTTGACGCTGCTG
Target: Interferon regulatory factor 5, full length, phosphomimetic (IRF5, Homo sapiens, UniProt Q13568-2, residues 1-514, K96S/S451D/S453D/S456D/S462D)
TCATATTTAAGGCTAGGACTGTGCTAG: -0.0134 z-score
TTGGATTTCAGTTCCGATTAGTGCTAG: 2.41 z-score
TACTTTCTACTTCTCTTTTTGTGCTAG: 6.31 z-score
GACGGACTGGGGTATCGCGACGTGCTA: -0.665 z-score
TCATTTTCCTACATCAGACTGTGCTAG: 1.07 z-score
TCAGTTTTACAATTTGCACTGTGCTAG: 0.74 z-score
TCACATTTCAATTAGAAACTGTGCTAG: 1.17 z-score
TTAGACATCGGGACTGGATTAGTGCTA: 0.0515 z-score
GACGGACTGGACTTTCGGGATGTGCTA: 4.76 z-score
GACGACTTCGGGACTGGAGACGTGCTA: -0.253 z-score
TCAAACTTAGTTTTCAAACTGTGCTAG: 0.372 z-score
ATTTTAATCACATATACACTGGTGCTA: 0.76 z-score
GACGATATTGGGTTTCGAGACGTGCTA: 3.06 z-score
TCAGGTTTTACTTTCTAACTGTGCTAG: 1.66 z-score
GACGGTCTCGGTTTCGGAACGTGCTAG: 4.49 z-score
GACGATTTCGGTATCGAGACGTGCTAG: 8 z-score
GACGAACTGCTTCTCCTGACGTGCTAG: -0.326 z-score
TTAGATATTGGGACTGGATTAGTGCTA: 0.303 z-score

Sample 2 — technique: protein binding microarray; form: double-stranded DNA, one strand shown; matrix: in vitro; concentration: not given; reference: not given; direction: higher = stronger binding; endpoint: E-score
Target: Histone acetyltransferase KAT6A, winged helix 2, GST fusion (KAT6A, Homo sapiens, UniProt Q92794, residues 85-181)
Notes: 8-mer, flanks averaged, mean of 2 arrays, mostly near background
Construct (chain): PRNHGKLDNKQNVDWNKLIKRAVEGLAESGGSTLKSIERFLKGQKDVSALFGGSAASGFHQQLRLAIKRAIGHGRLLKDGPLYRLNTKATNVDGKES
AGAGAACC: -0.158
AACGGTGA: -0.0491
AGTGGACC: 0.0213
GGCAATAC: 0.0732
GGGGCCCA: 0.193
GAATGGGC: 0.0298
GCACGTCC: -0.106
ACCGGGTG: 0.0647
GCAGCAAA: 0.0213
AGGGGACG: 0.0153
AGATAGAC: -0.00947
AGCGAACG: -0.119
AGTAACAA: -0.0225
ACGAATCT: -0.0392
ACCTCAAA: 0.0534
TCCGTTCA: 0.0047

Sample 3 — technique: RNA Bind-n-Seq; form: RNA; matrix: in vitro; concentration: 365 nM; reference: no-protein control; direction: higher = stronger binding; endpoint: RBNS enrichment (R)
Target: RNA binding protein fox-1 homolog 2, RRM domain, GST-SBP tag (RBFOX2, Homo sapiens, UniProt O43251-10, residues 100-194)
Notes: natural RNA segment, single round, ends assumed
Constant ends, left off below: GGGAGUUCUACAGUCCGACGAUC … UGGAAUUCUCGGGUGCCAA
Residues (chain): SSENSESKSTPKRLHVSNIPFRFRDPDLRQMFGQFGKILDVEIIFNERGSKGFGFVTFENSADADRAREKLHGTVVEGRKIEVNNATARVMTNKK
AUGUCAAACACUAUAUAACAAGCUGUGGUUUUUAAAAGCUAUUGAAUAAUGUUUACAUUGGUCCCUGAGGACAUGUGUGCUCAGACAUUCAAGAGCUAGGAGGCCAGAGA: 0.319
CUACAAGUUCAAGCGUUCCAAGCGCUUCUGUUCCAUGGCUUGUGCAAAGAGGUAUAAUGUGGGAUGCACCAAACGAGUGGGACUUUUUCACUCAGACCGAAGCAAGCUGC: 0.286
GCAAUAAGAGGCUCUAAGCUGACUGAGUUGCAAGGACCCUUUCCGCCCUCCCUUGGAUCUCCAUGUUUUUCCAGAUGGCGGAAGAGCAUGUGCCACCCCCUUUCCUAACA: 0.804
GAAUUCUAUUUUUGCUGAAUAUGCCAAAGAAUCAAAAGCCAUGGCUAUUAAGACAGAUGUGGAUGUUGUUGAAAUAAAAAAUACCUUAAGGAAGCACAUAUAUAGAGCUC: 0.643
AAUAAAUGUUUACAAUUUUAUAUUGAAGAUGGAAUAAGUGUUAGAGCGUCCAACUGUAUAUUUUUUACUUUUAUAGAUUUUAAAACUGAUCCUUUAUAUGUGUUUGGAGC: 0.986
GCCGCAGAGUGGCCCGCUGGGACUCCCAUGUGCUGCCGUCUGAUGUGCUCAGAUGGGCUCAUCGUUGGUUCGUUUUUACUGUAUAUUUAUAGUAAUAAAAUCAUGCAGCA: 0.317
CCCUGCUUUCUCUUUUCUUUGACUUAACAUUGGUUUCUGAAAGAAUCUUUGCUACCUAGAACCUGCAGUCUGUUUUAUGGCAACACUGGAUAAUGGCUUUUUGAAAUUGA: 0.596
AGAAUCAACAGGGCACAAGAUCUAUAUAUAUUUUUAAGAGAAAAUGUAAAUAAAGAAUUUCUAAAAUAGCUUCCAGACUUGUCACUCAGUGGGAGCAUUAGAUUAACACA: 0.527
UUCUGCUUUCUGUUCGGGGUGCCCUUCACUUAAUUGCCUUACUGGCUGGCUGACGGCAGGGGAGUGUGAGUGUUAGGUUAGGGCCUUCUCAUGAAAGGGGCAGUUGCACA: 0.482
AAGUGAAUCUUUGUGAUUUUCAUUCUAGAAAACAAUGUUUUAAAUCACCCAAAUUUAAUCACAUGUCUUUAUAUCAUACCAGAUAACUGGUGUAGUGUAUCCUUUUACUG: 0.327
GGAAAUGCAGUCCGGCCUAGGGCUCCCAGCCCUUGACUGUCCUCCUGUGAGGGCCUGAAGCUGGGCCAGGGCCCGUCGCAGCGGAGCCCCCUCUCAGCAGCCCACCGGGU: 0.538
AUGAUAAAAUUCCACAAAAUGGAAAUAAAACUCAAAUUUCUUUAGCAUUGUGUAAAUAAAUCUGAAUGUGUUUAACUUUGUACUGGUAAUUUUCUGUAUAUUUGGAAUAU: 0.623

Single results of other studies
GSAKRRLFGEDPP — Cln2-subtracted enrichment score (human cyclin F; cyclin docking binding, deep mutational scanning; peptide, yeast cyclin F-Cln2 system; direction not given): 5.12

For quick reference, copied from above (sample 3):
CUACAAGUUCAAGCGUUCCAAGCGCUUCUGUUCCAUGGCUUGUGCAAAGAGGUAUAAUGUGGGAUGCACCAAACGAGUGGGACUUUUUCACUCAGACCGAAGCAAGCUGC: 0.286
GCAAUAAGAGGCUCUAAGCUGACUGAGUUGCAAGGACCCUUUCCGCCCUCCCUUGGAUCUCCAUGUUUUUCCAGAUGGCGGAAGAGCAUGUGCCACCCCCUUUCCUAACA: 0.804
GAAUUCUAUUUUUGCUGAAUAUGCCAAAGAAUCAAAAGCCAUGGCUAUUAAGACAGAUGUGGAUGUUGUUGAAAUAAAAAAUACCUUAAGGAAGCACAUAUAUAGAGCUC: 0.643
AAUAAAUGUUUACAAUUUUAUAUUGAAGAUGGAAUAAGUGUUAGAGCGUCCAACUGUAUAUUUUUUACUUUUAUAGAUUUUAAAACUGAUCCUUUAUAUGUGUUUGGAGC: 0.986
